Measurements collected from several papers.
Parts stem from different laboratories: compare values within a part only. Substitutions count along the parent as printed.

Study 1
Target: ABI1, truncated, D143A, DHFR fusion (Arabidopsis thaliana)
Method: DHFR PCA, deep sequencing
Matrix: yeast
Notes: methotrexate growth selection, single substitutions
With: (+)-ABA 0.39 µM
Relative to: wild-type fitted maximum
Reading: higher = stronger binding
Starting sequence: PYL1, truncated, DHFR fusion (Arabidopsis thaliana); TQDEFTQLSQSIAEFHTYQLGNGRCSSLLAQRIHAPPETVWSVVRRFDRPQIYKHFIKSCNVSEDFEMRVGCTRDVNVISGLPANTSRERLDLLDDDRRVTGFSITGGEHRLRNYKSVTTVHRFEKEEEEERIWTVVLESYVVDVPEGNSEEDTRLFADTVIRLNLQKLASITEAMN; partner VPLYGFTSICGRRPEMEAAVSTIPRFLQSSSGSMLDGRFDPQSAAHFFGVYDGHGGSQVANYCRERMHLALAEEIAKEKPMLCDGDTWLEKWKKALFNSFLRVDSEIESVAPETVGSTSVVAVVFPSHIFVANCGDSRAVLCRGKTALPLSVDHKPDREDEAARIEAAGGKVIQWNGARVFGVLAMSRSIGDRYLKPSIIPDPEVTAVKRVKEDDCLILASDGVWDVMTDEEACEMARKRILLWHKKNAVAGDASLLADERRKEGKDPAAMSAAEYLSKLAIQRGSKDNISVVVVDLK
`T119D`: “relative binding score” -15.5%.
`N77H`: “relative binding score” 70.2%.
For `D95S`, “relative binding score” read 4.44%.
For `N149A`, “relative binding score” read 54.4%.
For `G23Q`, “relative binding score” read 11%.
For `A13C`, “relative binding score” read 19.5%.
Under “relative binding score”, `A84W` is recorded as 98.9%.
`G81H` — result for “relative binding score”: -9.71%.

Study 2
Target: Ras GTPase-activating protein-binding protein 1, full length (G3BP1, Homo sapiens, UniProt Q13283)
Sequence of UniProt Q13283 (whole entry, looked up): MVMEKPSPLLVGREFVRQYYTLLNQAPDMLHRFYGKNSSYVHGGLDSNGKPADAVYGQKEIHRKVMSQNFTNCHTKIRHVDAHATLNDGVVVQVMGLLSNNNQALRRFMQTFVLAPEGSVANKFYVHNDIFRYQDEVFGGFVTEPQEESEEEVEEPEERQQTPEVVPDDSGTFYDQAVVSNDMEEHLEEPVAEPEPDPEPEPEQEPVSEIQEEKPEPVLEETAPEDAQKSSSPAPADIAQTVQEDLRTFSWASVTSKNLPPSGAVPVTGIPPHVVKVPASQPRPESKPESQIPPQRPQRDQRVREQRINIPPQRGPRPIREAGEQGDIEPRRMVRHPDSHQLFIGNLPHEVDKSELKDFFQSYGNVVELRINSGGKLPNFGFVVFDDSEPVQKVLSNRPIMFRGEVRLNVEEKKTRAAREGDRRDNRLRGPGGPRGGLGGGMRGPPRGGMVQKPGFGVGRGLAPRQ
Method: RNA Bind-n-Seq
Molecule type: RNA
Matrix: in vitro
Tested at: 200 nM
Notes: whole 134-nt RNA, ends assumed
With: 150 mM KCl
Relative to: input library
Reading: higher = stronger binding
Shared flanks, not repeated: GGGAGUUCUACAGUCCGACGAUC … UGGAAUUCUCGGGUGUCAAGG
The log2 enrichment of `CAACGUUGAAAUGGAUUGGGUGUUGAAGCAUACUGGUCCAAAUAGUCCUGACACGGCCAAUGAUGGCUUUGUACGGCUUAGAGGACUUCC` is reported as -2.02.
For `CCUCAAGUCCUGUGCUACACAUCGUAUGUACCGAAUCGGGUUGGUUGGGUUGGAAAGUAUUAUGUUACGCCGUUCGGAUCUGCACUUCCA`, the log2 enrichment was -0.195.
The log2 enrichment of `AAGUCCUGUGCUACACAUCGUAUGUACCGAAUCGGUUUUUUUGGUGGUUUUUUUGGAAAGUAUUAUGUUACGCCGUUCGGAUCUGCACUU` is reported as -1.36.
For `AGUCCUGUGCUACACAUCGUAUGUACCGAAUCGGGGAAAAGGGGAAAAGGAAAAGGGGAAAGUAUUAUGUUACGCCGUUCGGAUCUGCAC`, the log2 enrichment was 0.00659.
`UAACUUUAAAGGAGGAUCUGAUGGAUAUGGCAGUGGACGUGGAUUUGGGGAUGGCUAUAAUGGGUAUGGAGGAGGACCUGGAGGUGGCAA` gave a log2 enrichment of 0.332.
The log2 enrichment of `UAACUUUAGAGGAGGAUCUGAUGGAUAUGGCAGUGGACGUUGAUUUGGGGAUGGCUAUAAUGGGUAUGGAGGAGGACCUGGAGGUGGCAA` is reported as 0.387.
`CUGCGCGCGGAUUUCCCUCUCUGAGGAAGUUUAUCCUUGUGCCUUCUGGAGGAUUUCUCUCUAGCUCGACUCACUCUGGACUGACUCGCU` gave a log2 enrichment of -0.685.
The log2 enrichment of `AAUAACUGACGCUGCAUUUAAUUUUUUUGCCAGUUUAAAAUGUUUGUGUGUUUUUAUAGAUGAUUUUAACUGGUACAUAUUUUGAGUUAA` is reported as -1.7.

Mixed results
Tested at: 10 µM
For Cc1ccc(Cl)c(Nc2ccccc2C(=O)O)c1Cl, the inhibition was -16.7% (Sarcocystis neurona; parasite growth; 96 h).
Clc1cc2cc(c1)-c1cnn3ccc(nc13)NCCOCCO2: “nuclear SOX9 intensity” 90.6 % of DMSO (mouse MPNST tumor cells; high-content immunofluorescence imaging, measured: nuclear SOX9; 12 h, mean of 2 replicates; relative to: DMSO control, higher = more nuclear SOX9).

Repeated from above (study 1):
For `G23Q`, “relative binding score” read 11%.
For `A13C`, “relative binding score” read 19.5%.
Under “relative binding score”, `A84W` is recorded as 98.9%.
